Published values from different studies.
Parts stem from different laboratories: compare values within a part only. “And” joins repeats or separate records; there may be more than shown.
Chain of UniProt Q15418 (whole entry, looked up): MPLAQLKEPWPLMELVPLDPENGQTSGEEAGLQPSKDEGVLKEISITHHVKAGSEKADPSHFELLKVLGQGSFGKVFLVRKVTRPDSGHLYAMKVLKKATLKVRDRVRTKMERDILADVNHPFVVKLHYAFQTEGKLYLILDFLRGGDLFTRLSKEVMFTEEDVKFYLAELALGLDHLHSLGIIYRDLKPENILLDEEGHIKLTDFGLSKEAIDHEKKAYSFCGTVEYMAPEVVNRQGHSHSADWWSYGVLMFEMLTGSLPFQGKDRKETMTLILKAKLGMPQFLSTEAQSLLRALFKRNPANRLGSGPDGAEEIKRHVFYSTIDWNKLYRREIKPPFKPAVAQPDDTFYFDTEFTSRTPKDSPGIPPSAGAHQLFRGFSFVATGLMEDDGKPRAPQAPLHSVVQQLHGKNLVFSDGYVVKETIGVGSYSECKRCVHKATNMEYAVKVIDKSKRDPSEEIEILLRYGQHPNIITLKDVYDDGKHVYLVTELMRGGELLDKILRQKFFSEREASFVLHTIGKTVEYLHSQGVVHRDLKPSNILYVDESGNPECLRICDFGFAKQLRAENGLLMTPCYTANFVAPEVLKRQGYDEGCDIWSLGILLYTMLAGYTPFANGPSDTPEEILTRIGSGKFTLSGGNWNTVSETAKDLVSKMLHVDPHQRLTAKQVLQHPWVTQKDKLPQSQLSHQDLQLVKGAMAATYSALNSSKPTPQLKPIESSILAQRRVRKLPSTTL
Chain of UniProt P23443 (whole entry, looked up): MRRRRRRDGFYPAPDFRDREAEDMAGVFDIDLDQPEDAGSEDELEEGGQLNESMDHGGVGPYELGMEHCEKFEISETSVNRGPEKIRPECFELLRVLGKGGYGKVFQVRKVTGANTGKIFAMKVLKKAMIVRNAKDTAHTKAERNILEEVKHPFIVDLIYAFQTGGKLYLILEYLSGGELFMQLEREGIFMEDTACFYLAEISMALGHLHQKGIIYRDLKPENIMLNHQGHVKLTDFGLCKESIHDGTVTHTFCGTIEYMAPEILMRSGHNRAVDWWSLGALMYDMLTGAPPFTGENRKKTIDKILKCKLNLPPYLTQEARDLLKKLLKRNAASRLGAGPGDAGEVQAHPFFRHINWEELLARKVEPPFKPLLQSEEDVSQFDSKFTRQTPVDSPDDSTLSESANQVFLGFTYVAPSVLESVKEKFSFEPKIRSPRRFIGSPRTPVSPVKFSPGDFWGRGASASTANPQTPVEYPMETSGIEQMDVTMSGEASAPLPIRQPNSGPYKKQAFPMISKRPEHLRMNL
Chain of UniProt Q9P1W9 (whole entry, looked up): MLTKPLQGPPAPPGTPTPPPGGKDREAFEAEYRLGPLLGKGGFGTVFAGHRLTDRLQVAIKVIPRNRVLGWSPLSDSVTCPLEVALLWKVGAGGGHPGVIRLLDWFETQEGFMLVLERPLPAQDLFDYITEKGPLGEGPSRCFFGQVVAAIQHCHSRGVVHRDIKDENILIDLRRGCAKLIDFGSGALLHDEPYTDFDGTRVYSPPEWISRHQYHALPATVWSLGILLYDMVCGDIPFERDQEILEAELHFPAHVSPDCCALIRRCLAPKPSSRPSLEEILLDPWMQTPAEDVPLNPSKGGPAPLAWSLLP
Chain of UniProt Q9UQB9 (whole entry, looked up): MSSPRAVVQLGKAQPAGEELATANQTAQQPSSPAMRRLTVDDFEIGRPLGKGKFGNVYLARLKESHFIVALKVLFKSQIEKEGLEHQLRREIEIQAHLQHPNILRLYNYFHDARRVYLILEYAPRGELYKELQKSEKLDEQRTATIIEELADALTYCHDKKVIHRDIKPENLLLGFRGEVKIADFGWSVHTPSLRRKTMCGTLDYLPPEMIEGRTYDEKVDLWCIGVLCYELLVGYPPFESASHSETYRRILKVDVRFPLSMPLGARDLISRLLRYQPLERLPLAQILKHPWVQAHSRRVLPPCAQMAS

Series 1
Target: DNA polymerase theta, helicase domain (POLQ, Homo sapiens, UniProt O75417)
Chain of UniProt O75417 (whole entry, looked up): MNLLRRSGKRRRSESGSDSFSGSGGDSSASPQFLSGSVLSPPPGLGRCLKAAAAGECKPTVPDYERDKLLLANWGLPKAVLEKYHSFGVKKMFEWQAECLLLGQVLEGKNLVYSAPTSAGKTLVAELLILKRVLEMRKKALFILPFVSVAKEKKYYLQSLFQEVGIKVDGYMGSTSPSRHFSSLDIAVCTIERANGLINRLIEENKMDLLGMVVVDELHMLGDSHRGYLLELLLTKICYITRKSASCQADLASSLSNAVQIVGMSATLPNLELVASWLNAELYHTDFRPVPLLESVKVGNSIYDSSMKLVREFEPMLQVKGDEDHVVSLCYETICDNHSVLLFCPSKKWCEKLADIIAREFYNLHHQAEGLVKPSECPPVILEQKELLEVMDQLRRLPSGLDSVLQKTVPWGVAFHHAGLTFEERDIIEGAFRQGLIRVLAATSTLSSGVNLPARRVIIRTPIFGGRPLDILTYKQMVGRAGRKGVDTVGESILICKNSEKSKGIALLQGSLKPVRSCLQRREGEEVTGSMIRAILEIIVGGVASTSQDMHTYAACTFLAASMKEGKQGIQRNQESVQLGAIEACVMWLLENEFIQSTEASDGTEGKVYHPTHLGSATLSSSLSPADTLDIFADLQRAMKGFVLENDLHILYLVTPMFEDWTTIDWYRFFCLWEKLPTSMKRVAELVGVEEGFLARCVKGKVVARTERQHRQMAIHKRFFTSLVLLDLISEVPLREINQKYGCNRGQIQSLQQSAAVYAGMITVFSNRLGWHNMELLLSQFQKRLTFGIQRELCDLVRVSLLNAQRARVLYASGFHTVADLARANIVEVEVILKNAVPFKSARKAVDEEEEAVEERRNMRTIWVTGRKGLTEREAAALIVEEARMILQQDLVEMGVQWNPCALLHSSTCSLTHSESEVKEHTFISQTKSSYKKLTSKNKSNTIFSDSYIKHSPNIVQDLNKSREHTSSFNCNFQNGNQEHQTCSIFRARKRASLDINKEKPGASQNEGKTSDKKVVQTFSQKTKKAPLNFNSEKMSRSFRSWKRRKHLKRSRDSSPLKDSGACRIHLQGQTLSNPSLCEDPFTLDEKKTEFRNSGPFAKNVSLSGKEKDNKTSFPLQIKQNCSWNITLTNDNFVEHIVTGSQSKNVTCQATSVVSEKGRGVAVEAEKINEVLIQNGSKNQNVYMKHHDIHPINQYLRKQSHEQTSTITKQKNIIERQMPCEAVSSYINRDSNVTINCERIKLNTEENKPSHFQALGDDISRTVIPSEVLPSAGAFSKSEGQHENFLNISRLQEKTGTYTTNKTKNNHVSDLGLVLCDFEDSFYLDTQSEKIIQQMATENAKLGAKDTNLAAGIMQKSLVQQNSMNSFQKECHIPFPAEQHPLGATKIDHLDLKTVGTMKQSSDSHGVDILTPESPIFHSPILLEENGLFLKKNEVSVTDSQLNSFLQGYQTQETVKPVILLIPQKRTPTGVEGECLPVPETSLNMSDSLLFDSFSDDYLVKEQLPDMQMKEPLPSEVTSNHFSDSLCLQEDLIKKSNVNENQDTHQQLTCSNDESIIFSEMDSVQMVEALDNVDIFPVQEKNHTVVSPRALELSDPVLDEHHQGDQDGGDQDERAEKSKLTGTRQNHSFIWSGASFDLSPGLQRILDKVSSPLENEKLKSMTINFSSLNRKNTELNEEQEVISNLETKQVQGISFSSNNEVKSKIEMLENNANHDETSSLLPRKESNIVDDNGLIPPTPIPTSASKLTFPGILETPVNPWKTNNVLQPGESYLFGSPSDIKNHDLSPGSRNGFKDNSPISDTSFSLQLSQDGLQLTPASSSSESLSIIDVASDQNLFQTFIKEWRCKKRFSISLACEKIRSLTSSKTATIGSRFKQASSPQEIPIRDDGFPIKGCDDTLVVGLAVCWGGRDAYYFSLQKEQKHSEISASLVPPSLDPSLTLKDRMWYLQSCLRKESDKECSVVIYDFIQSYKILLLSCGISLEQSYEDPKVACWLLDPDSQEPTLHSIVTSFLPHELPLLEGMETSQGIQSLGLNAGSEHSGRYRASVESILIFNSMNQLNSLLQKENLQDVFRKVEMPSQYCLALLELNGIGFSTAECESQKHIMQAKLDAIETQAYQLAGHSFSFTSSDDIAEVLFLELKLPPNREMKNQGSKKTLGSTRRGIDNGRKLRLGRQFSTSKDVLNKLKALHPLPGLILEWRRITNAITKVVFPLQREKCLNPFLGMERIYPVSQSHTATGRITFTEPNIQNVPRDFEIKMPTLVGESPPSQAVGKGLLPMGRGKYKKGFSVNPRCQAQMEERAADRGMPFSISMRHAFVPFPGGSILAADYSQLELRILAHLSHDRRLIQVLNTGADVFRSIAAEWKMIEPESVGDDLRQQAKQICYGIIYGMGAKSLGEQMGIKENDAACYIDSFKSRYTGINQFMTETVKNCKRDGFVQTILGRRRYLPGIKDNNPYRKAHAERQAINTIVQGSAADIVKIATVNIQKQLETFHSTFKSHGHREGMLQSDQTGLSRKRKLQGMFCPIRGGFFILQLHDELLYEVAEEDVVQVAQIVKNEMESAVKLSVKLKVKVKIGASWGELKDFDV
Effect on: ATPase activity
Tested at: concentration not given
Setting: with minus without ssDNA
With CC(C)(C)c1ccc(S(=O)(=O)c2cnc(SCC(=O)Nc3ccc4c(c3)OCCO4)[nH]c2=O)cc1 the activity difference was 7.66%.
N#Cc1c(O)c2c(-c3ccc(-c4ccccc4O)cc3)csc2[nH]c1=O gave an activity difference of 2.53%.
For CCCCCCCCCCCCc1ccc(S(=O)(=O)Nc2nncs2)cc1, the activity difference was 10.2%.
For COc1ccc(C(=O)Nc2noc3ccccc23)cc1, the activity difference was 0.697%.
For O=C(O)[C@]1(Cc2cccc(Nc3nccs3)n2)CC[C@@H](Oc2cccc(Cl)c2F)CC1, the activity difference was 4.53%.
CCc1ccc(/C=C2/SC(=S)NC2=O)cc1 has an activity difference of 1.61%.
With O=c1[nH]c2cc(Cl)ccc2c(O)c1-c1cccc(Oc2ccccc2)c1 the activity difference was 7.05%.
With CCOc1nc2cccc(C(=O)OCc3oc(=O)oc3C)c2n1Cc1ccc(-c2ccccc2-c2noc(=O)[nH]2)cc1 the activity difference was 12.4%.

Series 2
SMILES: CCOc1cc2ncnc(Nc3cccc(Br)c3)c2cc1OCC
Effect on: enzyme activity
Action: inhibitor
Tested at: 0.5 µM
Baseline: control
It gave 87.1% for remaining activity (FGFR4 (Homo sapiens, UniProt P22455)).
For Aurora kinase C (AURKC, Homo sapiens, UniProt Q9UQB9): remaining activity read 83.7%.
It gave 94.5% for remaining activity (PRKCE (Homo sapiens, UniProt Q02156)).
For EPHB2 (Homo sapiens, UniProt P29323): remaining activity read 77%.
It gave 94% for remaining activity (NUAK1 (Homo sapiens, UniProt O60285)).
It gave 96% for remaining activity (GRK6 (Homo sapiens, UniProt P43250)).
EPHA7 (Homo sapiens, UniProt Q15375) — remaining activity: 58.5%.
The remaining activity was 105% (PAK2 (Homo sapiens, UniProt Q13177)).
For MYLK (Homo sapiens, UniProt Q15746): remaining activity read 89.4%.
For CSK (Homo sapiens, UniProt P41240): remaining activity read 94%.
It gave 93.5% for remaining activity (SRPK3 (Homo sapiens, UniProt Q9UPE1)).
It gave 95.8% for remaining activity (RPS6KB1 (Homo sapiens, UniProt P23443)).
For GRK2 (Homo sapiens, UniProt P25098): remaining activity read 95.4%.
It gave 82.8% for remaining activity (RPS6KA1 (Homo sapiens, UniProt Q15418)).
The remaining activity was 87.6% (CSF1R (Homo sapiens, UniProt P07333)).
SGK1 (Homo sapiens, UniProt O00141) — remaining activity: 120%.
For BMX (Homo sapiens, UniProt P51813): remaining activity read 95.5%.
GSK3A (Homo sapiens, UniProt P49840) — remaining activity: 110%.
For PRKCG (Homo sapiens, UniProt P05129): remaining activity read 83%.
The remaining activity was 98.9% (PIM2 (Homo sapiens, UniProt Q9P1W9)).
The remaining activity was 29% (FLT3 (Homo sapiens, UniProt P36888)).

Series 3
Target: Eukaryotic initiation factor 4A-III (Homo sapiens, UniProt P38919)
Chain of UniProt P38919 (whole entry, looked up): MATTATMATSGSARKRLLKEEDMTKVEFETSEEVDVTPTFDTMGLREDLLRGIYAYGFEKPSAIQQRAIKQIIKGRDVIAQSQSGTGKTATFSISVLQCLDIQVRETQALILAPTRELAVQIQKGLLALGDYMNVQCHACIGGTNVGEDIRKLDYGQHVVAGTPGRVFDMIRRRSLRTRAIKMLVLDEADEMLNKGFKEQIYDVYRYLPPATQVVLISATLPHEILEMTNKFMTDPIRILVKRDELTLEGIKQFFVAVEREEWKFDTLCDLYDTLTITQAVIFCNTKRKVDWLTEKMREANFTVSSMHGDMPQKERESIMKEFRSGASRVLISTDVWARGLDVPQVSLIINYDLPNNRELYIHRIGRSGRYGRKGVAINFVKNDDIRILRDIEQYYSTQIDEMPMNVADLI
Effect on: RNA clamping
Technique: fluorescence polarization
Tested at: concentration not given
Setting: mean of two replicates
Together with: FAM-labelled poly r(AG)8 RNA
COc1cc(OC)c2c(c1)N(C)[C@]1(c3ccc(Br)cc3)C(=O)[C@@]2(O)[C@H](c2ccccc2)[C@H]1c1ccccc1: “fluorescence polarization change” -0.9 mP.
COc1cc(OC)c2c(c1)O[C@@]1(c3ccc(Br)cc3)[C@H](c3ccccc3)c3c(nc(-c4ccccc4)[nH]c3=O)[C@@]21O: “fluorescence polarization change” 11.1 mP.
COc1cc(O)cc2c1[C@]1(O)[C@H](O)[C@H](C(=O)N(C)OC)[C@@H](c3ccccc3)[C@]1(c1ccc(Br)cc1)O2 — result for “fluorescence polarization change”: 20.8 mP and 57.8 mP.
COC(=O)[C@@H]1[C@@H](c2ccccc2)[C@]2(c3ccc(OC)cc3)Oc3cc(OC)cc(OC)c3[C@@]1(O)C2(O)O — result for “fluorescence polarization change”: 2.7 mP.
Under “fluorescence polarization change”, COc1cc(OC)c2c(c1)O[C@@]1(c3ccc(Br)cc3)[C@H](c3ccccc3)C3=C(N[C@H]4CCCN4C3=O)[C@@]21O is recorded as 29.1 mP.
For COc1cc(F)cc2c1[C@]1(O)[C@H](O)[C@H](C#N)[C@@H](c3ccccc3)[C@]1(c1ccc(Br)cc1)O2, “fluorescence polarization change” read 29 mP.
For COC(=O)[C@H]1C(=O)[C@@]2(NN(C)C)c3c(OC)cc(OC)cc3O[C@@]2(c2ccc(OC)cc2)[C@@H]1c1ccccc1, “fluorescence polarization change” read 5 mP.
COC(=O)[C@@H]1[C@@H](c2ccccc2)[C@]2(c3ccc(OC)cc3)Oc3cc(OC)cc(OC)c3[C@@]23N2CCCC2=N[C@@]13O: “fluorescence polarization change” 9.2 mP.
C#CCCC1(CCNC(=O)CCCn2c(-c3ccccc3)nc3c(c2=O)[C@@H](c2ccccc2)[C@]2(c4ccc(OC)cc4)Oc4cc(OC)cc(OC)c4[C@]32O)N=N1 — result for “fluorescence polarization change”: 4.4 mP.
COc1ccc([C@@]23Oc4cc(O)cc(OC)c4[C@]2(O)[C@H](O)[C@H](C(=O)N(C)OC)[C@H]3c2ccccc2)cc1 — result for “fluorescence polarization change”: 6.2 mP.
For COC(=O)[C@@H]1[C@@H](c2ccccc2)[C@]2(c3ccc(OC)cc3)Oc3cc(OC)cc(OC)c3[C@@]23NC(C2CCCCC2)=N[C@@]13O, “fluorescence polarization change” read 40.3 mP.

Series 4
SMILES: CC(=O)N[C@@H](Cc1c[nH]c2ccccc12)C(=O)N[C@@H](CCC(=O)C=[N+]=[N-])C(=O)OC(C)C
Host: C57BL/6 CES1-/- mice, EL4 tumour
Route: subcutaneous
Dose: 0.3 mg/kg/day DON equivalent
Time: 5 days
For UPLC-MS/MS metabolomics, refers to: glucuronate; EL4 tumour; normalised to tissue mass: “metabolite peak intensity” read 3.55e+06 a.u. and 4.87e+06 a.u. and 3.38e+06 a.u. and 3.77e+06 a.u. and 3.43e+06 a.u.
For UPLC-MS/MS metabolomics, refers to: glucose 1-phosphate; EL4 tumour; normalised to tissue mass: “metabolite peak intensity” read 1.43e+07 a.u. and 1.96e+07 a.u. and 2.21e+07 a.u. and 2.71e+07 a.u. and 2.25e+07 a.u. and 1.69e+07 a.u.
The “metabolite peak intensity” was 3.31e+08 a.u. and 3.56e+08 a.u. and 3.09e+08 a.u. and 3.43e+08 a.u. and 3.4e+08 a.u. and 3.54e+08 a.u. (UPLC-MS/MS metabolomics, refers to: glycerate; EL4 tumour; normalised to tissue mass).
It gave 6.49e+06 a.u. and 2.88e+07 a.u. and 1.67e+07 a.u. and 8.35e+06 a.u. and 1.62e+07 a.u. and 4.42e+07 a.u. for “metabolite peak intensity” (LC-MS/MS metabolomics, refers to: maltose; EL4 tumour; higher = more metabolite).
UPLC-MS/MS, refers to: 5-methyluridine; EL4 tumour — “metabolite peak intensity”: 388000 a.u. and 323000 a.u. and 240000 a.u. and 298000 a.u. and 203000 a.u. and 205000 a.u.
LC-MS/MS metabolomics, refers to: 2,3-dihydroxyisovalerate; EL4 tumour; normalised to tissue mass; higher = more metabolite — “metabolite peak intensity”: 223000 a.u. and 385000 a.u. and 441000 a.u. and 378000 a.u. and 351000 a.u. and 265000 a.u.
UPLC-MS/MS, refers to: itaconate; EL4, tumour; normalised to tissue mass; higher = more metabolite — “metabolite peak intensity”: 5.81e+08 a.u. and 1.35e+09 a.u. and 5.44e+08 a.u. and 6.72e+08 a.u. and 1.26e+09 a.u. and 4.89e+08 a.u.
The “metabolite peak intensity” was 4.26e+06 a.u. and 3.24e+06 a.u. and 5.54e+06 a.u. and 5.24e+06 a.u. and 5.35e+06 a.u. and 3.5e+06 a.u. (UPLC-MS/MS, refers to: hydroxymethylpyrimidine; EL4, tumour; normalised to tissue mass; higher = more metabolite).

Single results of other studies
Cn1cncc1[C@@](O)(COc1ccc(C#N)cc1-c1ccc(OC(F)(F)F)cc1)c1ccc(C#N)cc1 gave a GR value of -0.704 and -0.0138 (HEK293T; high-content imaging; 10 µM, 12 h, 1 normal, negative death, unit not given; baseline: untreated growth).

Some of these lines once more (series 3):
COc1cc(OC)c2c(c1)N(C)[C@]1(c3ccc(Br)cc3)C(=O)[C@@]2(O)[C@H](c2ccccc2)[C@H]1c1ccccc1: “fluorescence polarization change” -0.9 mP.
COc1cc(OC)c2c(c1)O[C@@]1(c3ccc(Br)cc3)[C@H](c3ccccc3)c3c(nc(-c4ccccc4)[nH]c3=O)[C@@]21O: “fluorescence polarization change” 11.1 mP.
COc1cc(O)cc2c1[C@]1(O)[C@H](O)[C@H](C(=O)N(C)OC)[C@@H](c3ccccc3)[C@]1(c1ccc(Br)cc1)O2 — result for “fluorescence polarization change”: 20.8 mP and 57.8 mP.
